# Experimental data of several laboratories.
# Each numbered part is a random draw from the data of one study; scales do not carry over between parts. Substitutions count along the parent as printed.

# Study 1
# Target: CCNE1, cyclin fold, Cln2 fusion (human)
# Technique: yeast growth competition, sequencing
# Sample: yeast
# Setting: weak parent motif
# Reference: not given
# Direction: higher = stronger binding
# Starting sequence: CUX1 docking peptide (human); SRIRRELFIEEIQ
Substitution,normalised enrichment score
SRARRELFIEEIQ [I3A],1.99
SRIRREAFIEEIQ [L7A],-0.242
SRIRRELAIEEIQ [F8A],0.533
SRIRRALFIEEIQ [E6A],0.944
SRIRAELFIEEIQ [R5A],-0.278
SRIRRELLIEEIQ [F8L],0.33
SAIRRELFIEEIQ [R2A],-0.0497

# Study 2
# Target: MAFK, bZIP domain (human)
# Technique: DHFR protein complementation
# Sample: yeast
# Setting: single substitutions, most at no-binding floor
# Reference: wild-type JUN-FOS pair
# Direction: higher = stronger binding
# Starting sequence: JUN, bZIP domain (human); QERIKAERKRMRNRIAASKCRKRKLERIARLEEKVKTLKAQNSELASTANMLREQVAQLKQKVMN; partner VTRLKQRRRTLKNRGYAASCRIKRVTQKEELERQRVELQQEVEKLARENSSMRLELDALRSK
Substitution,binding fitness [natural log]
N42T,-1.45
V56E,-1.5
Q41A,-1.48
S47H,-1.4
V35K,-1.49
M51H,-1.48
I28V,-1.36
K36S,-1.55
R53I,-1.54
L38F,-1.5
E44A,-1.47
E54G,-1.35
Q41V,-1.46
S47K,-1.34

# Study 3
# Target: Sal-like protein 4, full length isoform A (SALL4, Homo sapiens, UniProt Q9UJQ4, residues 1-1053)
# Chain of UniProt Q9UJQ4 (whole entry, looked up): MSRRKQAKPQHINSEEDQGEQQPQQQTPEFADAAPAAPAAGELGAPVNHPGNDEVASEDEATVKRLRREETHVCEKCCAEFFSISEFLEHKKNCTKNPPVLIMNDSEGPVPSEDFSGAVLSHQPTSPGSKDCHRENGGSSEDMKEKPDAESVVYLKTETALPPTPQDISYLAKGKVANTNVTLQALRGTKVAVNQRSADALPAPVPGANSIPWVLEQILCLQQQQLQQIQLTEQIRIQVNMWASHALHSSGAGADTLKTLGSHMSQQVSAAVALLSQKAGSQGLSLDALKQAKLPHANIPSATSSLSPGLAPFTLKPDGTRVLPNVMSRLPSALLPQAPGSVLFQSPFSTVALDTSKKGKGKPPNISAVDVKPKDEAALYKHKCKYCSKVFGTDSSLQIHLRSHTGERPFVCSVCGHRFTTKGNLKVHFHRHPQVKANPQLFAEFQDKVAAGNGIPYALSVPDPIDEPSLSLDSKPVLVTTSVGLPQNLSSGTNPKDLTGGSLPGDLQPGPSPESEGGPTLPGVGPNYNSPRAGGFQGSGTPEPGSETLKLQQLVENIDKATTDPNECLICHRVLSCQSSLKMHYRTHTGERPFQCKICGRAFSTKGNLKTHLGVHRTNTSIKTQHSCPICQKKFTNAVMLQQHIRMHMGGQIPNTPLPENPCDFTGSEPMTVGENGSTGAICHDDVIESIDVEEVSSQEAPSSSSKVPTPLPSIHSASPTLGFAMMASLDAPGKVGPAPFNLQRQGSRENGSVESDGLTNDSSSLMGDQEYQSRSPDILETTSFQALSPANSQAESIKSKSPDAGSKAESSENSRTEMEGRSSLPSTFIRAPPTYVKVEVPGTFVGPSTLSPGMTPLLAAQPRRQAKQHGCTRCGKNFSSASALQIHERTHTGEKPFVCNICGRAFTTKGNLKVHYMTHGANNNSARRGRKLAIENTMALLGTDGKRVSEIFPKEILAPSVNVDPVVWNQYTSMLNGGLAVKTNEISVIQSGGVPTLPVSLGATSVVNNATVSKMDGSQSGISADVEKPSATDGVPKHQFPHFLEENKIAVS
# Technique: universal PBM
# Form: double-stranded DNA, one strand shown
# Sample: in vitro
# Concentration: 600 nM
# Setting: 8-mer, flanks averaged, mean of replicates
# Direction: higher = stronger binding
Sequence,E-score
AAGAGACT,0.0324
CCCTTGCG,-0.324
ACAGATGC,0.0751
ATCGGCGC,-0.234
ACAGTAAG,0.0343
GATCCGGA,-0.231
AACTCGGG,-0.262
GTGCTGGA,-0.132
CAATAGAG,0.127
AAAATGCT,0.166
ATCTACGG,0.00972
ACGCGGAT,-0.0618
CTGAACAC,0.0462
CCTGCGAA,-0.0489
AATACTCT,0.36
CAGTACGC,-0.0408
AAAACAGA,0.218
CAGTGCGA,-0.0835
GCGTATCA,0.113
ACTTGCCG,-0.17
TCCTTTAA,0.0925
GCCTATCA,-0.0669

# Study 4
# Target: Interferon regulatory factor 5, full length, phosphomimetic (IRF5, Homo sapiens, UniProt Q13568-2, residues 1-514, K96S/S451D/S453D/S456D/S462D)
# Technique: protein-binding microarray
# Form: double-stranded DNA, one strand shown
# Sample: in vitro
# Concentration: 250 nM
# Setting: 60-bp whole probe
# Together with: salmon DNA 0.4 mg/ml
# Reference: random background probes
# Direction: higher = stronger binding
# Shared flanks, not repeated: GCCTAGCAC … GTCTTGATTCGCTTGACGCTGCTG
Sequence,log fluorescence [z-score]
GACGGTTTTGGGACTGGGGACGTGCTA,0.214
TTAGGACTGGGTATCGGTTTGTGCTAG,3.47
GACGGACTGCTTTTTCTGACGTGCTAG,-0.129
GACGATTTCAGTTTCTAGACGTGCTAG,2.46
AAACGGATGATCTCTCTGGGCGTGCTA,-0.042
TTAGGTATCAGGTATCGGTTAGTGCTA,5
GACGGTATCGACAGTGGGGACGTGCTA,1.79
GACGGACTGCTTTTCCTGATGTGCTAG,-0.0264
GACGGACTGGGTATCTGGACGTGCTAG,-0.495
GACGGTTTCGGACTGGAGACGTGCTAG,4.18
GTCGGTATCGGTTTCGGGACGTGCTAG,9.62
TTAGGTTTCGGGTATCGGTTAGTGCTA,9.18
TCACGTCTGAGCTCCGTACTGTGCTAG,-0.323
GACGAACTGAGTCTCGATACGTGCTAG,0.559
TTTGGACTGGACACTGGGTTAGTGCTA,-0.391
GACGGTATCGGTATCGGGATGTGCTAG,6.58
TCATCTTTTCTGTTGTCACTGTGCTAG,1.98
TCATTTCCCACTTTCAGACTGTGCTAG,2.17
TTAGGTTTCCTTGCCCTTTAGTGCTAG,0.476
GACGGTTTCCTCCTCCTGACGTGCTAG,0.427
AATTTTTACTTTCTGAATGCGTGCTAG,4.68
TTTTATATCTTATCCTATCAGTGCTAG,1.61
GACGGACTGGGATATCGGGACGTGCTA,-0.463
TCAAAATTTTTTTTCTAACTGTGCTAG,0.703
TTAGGTATCGGACTGGGATAGTGCTAG,1.32

# Study 5
# Target: RING finger protein unkempt homolog, zinc fingers 1-6, SBP tag (UNK, Homo sapiens, UniProt Q9C0B0, residues 30-357)
# Chain of UniProt Q9C0B0 (30-357, looked up): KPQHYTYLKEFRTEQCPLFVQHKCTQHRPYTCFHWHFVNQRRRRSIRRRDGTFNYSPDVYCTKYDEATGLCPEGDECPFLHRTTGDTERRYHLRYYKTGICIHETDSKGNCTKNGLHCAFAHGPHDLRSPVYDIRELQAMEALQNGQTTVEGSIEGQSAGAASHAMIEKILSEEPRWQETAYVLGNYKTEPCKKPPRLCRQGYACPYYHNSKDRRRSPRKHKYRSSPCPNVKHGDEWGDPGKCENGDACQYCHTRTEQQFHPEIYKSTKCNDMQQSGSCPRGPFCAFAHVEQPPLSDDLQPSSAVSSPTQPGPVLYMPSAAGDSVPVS
# Technique: RNA Bind-n-Seq
# Form: RNA
# Sample: in vitro
# Concentration: 100 nM
# Setting: RNA with constant flanks, vertebrate orthologous sites, ends assumed
# Reference: input RNA pool
# Direction: higher = stronger binding
Sequence,bound/input enrichment [ratio]
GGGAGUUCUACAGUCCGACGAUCGUGGGGAUGAGGGUGGGAUGGGAAAGGGAUGUAUGGAUGUUACUGGCAUUUUUAAGUGUUUUAGAGUUUUUUGGGGUUUGGGGUGGUUUUUUUUCCUUGUUUUCCUUUUUUCCUUUUAAUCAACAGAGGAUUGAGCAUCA,2.34
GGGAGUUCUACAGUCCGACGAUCCCUUUAAAUCCCAUAUCUUCCGUUUCAUAGUGCAGAAAUAUUCUUUUCAAUUGUUAUUAGUGGACUUAUUUUAAUUUUAGAGAAACUUCCAGUACAAAUACUGUGAGCUGACAUGGAAAACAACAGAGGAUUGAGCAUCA,1.56
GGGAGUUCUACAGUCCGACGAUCCAAUUCAAUGGUUGAGGGUUCAGAACUCAAAAAGGUUCGCUCCAACUCUAGAAUAUACCAUAGGUAUUUUUUACUAGAUGCUGACAUGCAAAGCCUGAGGUGGGAGCCAUCUAAGAAGGACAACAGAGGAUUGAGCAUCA,0.268
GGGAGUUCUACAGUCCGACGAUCGCAAUGAAAAGACAGCCCUCCUCCCAGCCCCCACCUCACUAGGAGACACGAACGUUACCGUAGAAGAGCAAUUUAACUCAAUAAAUUUAUCUUUUCAGGAUGAUCCAGACUCCAGUCCCACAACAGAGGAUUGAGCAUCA,0.75
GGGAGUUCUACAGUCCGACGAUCACCAAGGGACACCCAGCAGGGCGAGGAGCCAGCCCAGCCAGCAGAGGUGGGGCGGGAUCGCUGCCAUCCGGGCUGCACUCACUGCUCUCUGCACCCCUCUGGUGCAAAACCAGCUGCCUUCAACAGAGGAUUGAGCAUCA,0.509
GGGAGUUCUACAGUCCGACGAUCCUGAAGCUUUGUGUUUGGCUGCACCUGCGUAAGCUGCUACAAAUAGAAUAAAGAAUUUCAUAGCCUGUAUCUAUCAUUUAGAUGCAUGGGAAAUGGGCUUUGCACACAAUGGGUUUGGAGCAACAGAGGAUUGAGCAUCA,1.13
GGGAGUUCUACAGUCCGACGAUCGAAGUUCCCCAUUGUCACUGAGAACCACCAAAUCUGACUUUUACAUUUGGUCUCAGAAUUUAGGUUCCUGCCCUGUUGGUUUUUUCCCCUCCCUUUAAAAAAAACACCCAGUUUUCAAAACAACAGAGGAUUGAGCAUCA,0.463
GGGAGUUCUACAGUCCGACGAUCAAGUAUCCCAGUUUACUGUGUUGAGUUGGCAUUGUACAGAAAUUAACAGCCAUAUUGGUCUAGAAACGUUAAACUUAAUUUUUUUCCAUUUGUACAGGGGUAACGCACUGUAUUAAAUAUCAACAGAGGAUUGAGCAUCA,0.706
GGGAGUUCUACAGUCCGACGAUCGGGAGGCCGGUGGGGGAAUCCCCUGCCUUGGCCUUGCAUCCCCUUCCUGCCACGUGCCCCUAGUUAUUUUUUUUUUUUUACCACCAUGUGAUUAAGGUCGGCGCUGCCUCCCCCGACCCACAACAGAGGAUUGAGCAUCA,6.24
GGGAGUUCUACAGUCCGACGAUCAGUGGAUGCAACAUAGGAACAUCCCAGGUACUGACUGCAGCUUCCGAUGCAAGGUUAGUGUGGGAGCCACAGUCUGUGUGAGGACGAUACAUGUCUUUGAGUAAAUGACAUCUUUAACUUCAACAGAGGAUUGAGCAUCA,0.198
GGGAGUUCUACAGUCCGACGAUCAGAGCUCACAAACUGAAAGGAAAACUAUUAAAGAGUUUCUAAUAUUAACUAUUAGAAAGCUAGGAAAGAUUAGGACAAUUUUACAAAUGAGCAAUUAAAAAGAAAAGGAUCUGGGAACUACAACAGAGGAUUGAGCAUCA,0.327

# Study 6
# Target: ABI1, truncated, D143A, DHFR fusion (Arabidopsis thaliana)
# Technique: DHFR PCA, deep sequencing
# Sample: yeast
# Setting: methotrexate growth selection, single substitutions
# Together with: (+)-ABA 710 µM
# Reference: wild-type fitted maximum
# Direction: higher = stronger binding
# Starting sequence: PYL1, truncated, DHFR fusion (Arabidopsis thaliana); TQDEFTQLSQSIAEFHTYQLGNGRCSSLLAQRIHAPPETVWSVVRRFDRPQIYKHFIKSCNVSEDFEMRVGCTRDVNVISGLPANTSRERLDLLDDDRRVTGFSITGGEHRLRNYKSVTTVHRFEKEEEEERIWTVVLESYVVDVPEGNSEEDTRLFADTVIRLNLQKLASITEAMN; partner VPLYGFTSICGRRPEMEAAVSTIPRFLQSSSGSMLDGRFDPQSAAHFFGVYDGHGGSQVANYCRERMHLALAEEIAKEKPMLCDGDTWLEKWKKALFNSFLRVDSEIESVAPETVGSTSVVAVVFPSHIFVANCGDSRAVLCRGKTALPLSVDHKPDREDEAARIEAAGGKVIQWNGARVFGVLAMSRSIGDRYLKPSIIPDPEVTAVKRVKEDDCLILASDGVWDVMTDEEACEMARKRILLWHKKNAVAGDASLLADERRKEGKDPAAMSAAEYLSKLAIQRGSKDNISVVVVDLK
Substitution,relative binding score
R49F,88.5%
R69W,83.3%
M68T,99%
D96K,55.8%
K116G,67.9%
D3G,100%
S171W,88.5%
Y18I,92.4%
L166K,-2.43%
M176C,95.8%
I133E,113%
G71S,85.1%
S150R,85.5%
L93T,102%

# Excerpt of the above (study 6):
Substitution,relative binding score
S171W,88.5%
R69W,83.3%
Y18I,92.4%
M68T,99%
K116G,67.9%
L93T,102%
D3G,100%
M176C,95.8%
G71S,85.1%
S150R,85.5%
